Results collected from several papers.
Each line is one published result; not all experiments were run side by side. In brackets after ≈: the same amount, converted by molar mass.
Organism: Pseudomonas aeruginosa

SMILES	assay	test system	setting	how to read	endpoint	value
Nc1nc2ccc(Oc3ccc4nc(N)sc4c3)cc2s1	LC-MS		concentration not given, 24 h		pyocyanin-related PCN production	decreased
CC(C)C[C@H](NC(=O)[C@H](CCN)NC(=O)[C@H](CCN)NC(=O)[C@@H](Cc1ccccc1)NC(=O)[C@H](CC(C)C)NC(=O)[C@H](CCN)NC(=O)[C@H](CCN)NC(=O)[C@@H](CCN)NC(=O)[C@@H](N)CSCCOC(=O)c1ccccc1)C(N)=O		PAO1	24 h, 37 °C		MBC	128 µM
CC(C)(C)OCC1NC(=O)C(C(=O)NC(C(=O)NC2C(=O)N3C2SC(C)(C)C3C(=O)O)c2ccccc2)=C1O (centres unmarked)		fpvA mutant			MIC	25 µg/mL (≈ 44.6 µM)
N#Cc1ccc2c(ccc3oc([N+](=O)[O-])cc32)c1	REMA				MIC90	> 32 µg/mL
COc1ccccc1C(=O)C#Cc1ccc(F)c(F)c1			10 µM, 24 h	reference: untreated	rhamnolipid production	32%
CC(C)C[C@H](NC(=O)[C@H](CCN)NC(=O)[C@H](CCN)NC(=O)[C@@H](Cc1ccccc1)NC(=O)[C@H](CC(C)C)NC(=O)[C@H](CCN)NC(=O)[C@H](CCN)NC(=O)[C@@H](CCN)NC(=O)CCSCCOC(=O)c1ccc(C(C)(C)C)cc1)C(N)=O		PAO1	24 h, 37 °C		MBC	16 µM
CCc1c([N+](=O)[O-])oc2ccc3ccccc3c12	REMA				MIC90	> 32 µg/mL
CC1(C)SC2C(NC(=O)C(NC(=O)C3=C(O)C(Cc4ccccc4)NC3=O)c3ccccc3)C(=O)N2C1C(=O)O (centres unmarked)		pvcA mutant			MIC	12.5 µg/mL (≈ 22.1 µM)
Cn1c(=O)ccc2ccc(F)c(CCNC[C@H]3CN(c4cnc5c(n4)NC(=O)CO5)C(=O)O3)c21					MIC90	1 µg/mL (≈ 2.13 µM)
N=C(N)NCCC[C@H](NC(=O)[C@@H](N)CCCNC(=N)N)C(=O)N[C@@H](Cc1c[nH]c2ccccc12)C(=O)N[C@@H](Cc1c[nH]c2ccccc12)C(=O)N[C@@H](Cc1ccccc1)C(=O)N[C@@H](CCC(N)=O)C(=O)N[C@@H](Cc1ccccc1)C(=O)N[C@@H](CCC(N)=O)C(=O)N[C@@H](Cc1ccccc1)C(=O)N[C@@H](CCCCN)C(N)=O					MBC	1130 µM
CC(C)(C)Oc1ccc(CC2NC(=O)C(C(=O)NC(C(=O)NC3C(=O)N4C3SC(C)(C)C4C(=O)O)c3ccccc3)=C2O)cc1 (centres unmarked)		pqsE mutant			MIC	6.25 µg/mL (≈ 9.82 µM)
Nc1ccc(S(=O)(=O)c2ccc3nc(N)sc3c2)cn1	swarming area, modified FAB agar	PA14-lux	200 µM, 24 h	reference: DMSO vehicle	inhibition	25.2%
CC(C)CC1NC(=O)C(C(=O)NC(C(=O)NC2C(=O)N3C2SC(C)(C)C3C(=O)O)c2ccccc2)=C1O (centres unmarked)		fpvB mutant			MIC	25 µg/mL (≈ 47.1 µM)
COc1cccc(C(=O)C#Cc2ccc(F)c(F)c2)c1			10 µM, 24 h	reference: untreated	rhamnolipid production	31%
O=[N+]([O-])c1cc2c(ccc3cc(Br)ccc32)o1	REMA				MIC90	> 32 µg/mL
CC[C@H](C)[C@H](NC(=O)[C@H](C)NC(=O)[C@H](CCCCN)NC(=O)[C@H](CC(C)C)NC(=O)[C@H](C)NC(=O)[C@@H](NC(=O)[C@H](Cc1c[nH]cn1)NC(=O)[C@H](CC(C)C)NC(=O)[C@@H](NC(=O)[C@@H](NC(=O)[C@H](CCCCN)NC(=O)[C@H](C)NC(=O)[C@H](C)NC(=O)[C@H](CO)NC(=O)[C@H](CCCCN)NC(=O)[C@H](Cc1ccccc1)NC(=O)[C@@H](NC(=O)[C@H](CCCCN)NC(=O)[C@H](CC(C)C)NC(=O)[C@H](Cc1ccccc1)NC(=O)[C@H](CO)NC(=O)[C@H](CCCCN)NC(=O)[C@H](Cc1c[nH]c2ccccc12)NC(=O)[C@H](CCCCN)NC(C)=O)[C@@H](C)O)[C@@H](C)O)C(C)C)[C@@H](C)O)C(=O)N[C@@H](CO)C(=O)N[C@@H](CO)C(N)=O		IPM-S	43 strains		MIC geometric mean	7.03 µg/mL (≈ 2.4 µM)
Nc1nc2ccc([S+]([O-])c3ccncc3)cc2s1 (centres unmarked)	pyocyanin production	PA14-lux	200 µM, 18 h	reference: DMSO vehicle	inhibition	18.1%
CC[C@H](C)[C@H](NC(=O)[C@H](CC(C)C)NC(=O)[C@H](CC(C)C)NC(=O)[C@H](Cc1c[nH]cn1)NC(=O)[C@H](CCCCN)NC(=O)[C@H](Cc1c[nH]cn1)NC(=O)[C@H](CCCNC(=N)N)NC(=O)[C@@H]1CCCN1C(=O)[C@H](Cc1ccc(O)cc1)NC(=O)[C@H](CC(C)C)NC(=O)[C@H](CCC(N)=O)NC(=O)[C@@H](N)CO)C(=O)N[C@@H](CCCCN)C(=O)N[C@@H](CCCNC(=N)N)C(=O)N[C@@H](CO)C(=O)N[C@@H](CC(C)C)C(=O)N[C@@H](CCCNC(=N)N)C(=O)N[C@@H](CS)C(=O)N[C@@H](CCCNC(=N)N)C(=O)N[C@@H](CCCCN)C(=O)N[C@@H](CS)C(=O)O					MBC	32 µg/mL
Nc1nc2ccc(Oc3ccc(=O)[nH]c3)cc2s1	swarming area, modified FAB agar	PA14-lux	200 µM, 24 h	reference: DMSO vehicle	inhibition	26%

SMILES	assay	test system	setting	how to read	endpoint	value
CC[C@H](C)[C@H](NC(=O)[C@H](Cc1ccccc1)NC(=O)[C@@H](NC(=O)[C@H](CO)NC(=O)[C@@H](N)CCCNC(=N)N)[C@@H](C)CC)C(=O)N[C@@H](CCCCN)C(=O)N[C@@H](Cc1ccc(O)cc1)C(=O)N[C@@H](CCCCN)C(=O)N[C@@H](CO)C(=O)N[C@@H](CCCCN)C(=O)N1CCC[C@H]1C(=O)N[C@@H](Cc1ccccc1)C(=O)N[C@@H](CS)C(=O)N[C@@H](CCC(=O)O)C(=O)N[C@@H](CCCCN)C(=O)N[C@@H](CC(C)C)C(=O)N[C@@H](CC(C)C)C(=O)N[C@@H](CO)C(=O)N[C@@H](Cc1c[nH]c2ccccc12)C(=O)N[C@H](C(=O)N[C@@H](CCCCN)C(=O)N[C@@H](CO)C(=O)O)C(C)C					MBC	8 µg/mL
O=C(C#Cc1ccc(F)c(F)c1)c1cccc(Cl)c1			10 µM, 24 h	reference: untreated	exoprotease production	47%
Nc1cc(S(=O)(=O)c2ccc3nc(N)sc3c2)ccn1	swarming area, modified FAB agar	PA14-lux	200 µM, 24 h	reference: DMSO vehicle	inhibition	-31.5%
COc1cccc(C(=O)C#Cc2ccc(O)c(OC)c2)c1			10 µM, 24 h	reference: untreated	exoprotease production	77%
NC(=O)COc1ccc2nc(N)sc2c1	pyocyanin production	PA14-lux	200 µM, 18 h	reference: DMSO vehicle	inhibition	11.7%
O=[N+]([O-])c1cc2c(ccc3c4cc([N+](=O)[O-])oc4ccc23)o1	REMA				MIC90	> 32 µg/mL
CC[C@H](C)[C@H](NC(=O)[C@H](Cc1ccccc1)NC(=O)[C@@H](NC(=O)[C@H](Cc1ccccc1)NC(=O)[C@@H]1CCCN1C(=O)[C@@H](NC(=O)[C@H](C)N)[C@@H](C)CC)[C@@H](C)CC)C(=O)N[C@@H](Cc1c[nH]c2ccccc12)C(=O)N[C@@H](CCCNC(=N)N)C(=O)N[C@@H](CC(C)C)C(=O)N[C@@H](CC(C)C)C(=O)N[C@@H](CCCNC(=N)N)C(=O)N[C@@H](CCCCN)C(=O)NCC(N)=O		PAO1	18 h, 37 °C		MBC	> 15 µM
O=C(C#Cc1ccc(F)c(F)c1)c1ccccc1Cl			10 µM, 24 h	reference: untreated	exoprotease production	50%
Cc1c([N+](=O)[O-])oc2ccc3ccccc3c12	REMA				MIC90	> 32 µg/mL
COc1cc(C#CC(=O)c2ccccc2OC)ccc1O			10 µM, 24 h	reference: untreated	exoprotease production	66%
Nc1nc2ccc(S(=O)(=O)c3cnn(CCO)c3)cc2s1	swarming area, modified FAB agar	PA14-lux	200 µM, 24 h	reference: DMSO vehicle	inhibition	11.4%
CC1(C)SC2C(NC(=O)C(NC(=O)C3=C(O)C(Cc4ccsc4)NC3=O)c3ccccc3)C(=O)N2C1C(=O)O (centres unmarked)		pvcA mutant			MIC	50 µg/mL (≈ 87.6 µM)
N=C(N)NCCC[C@H](NC(=O)[C@H](Cc1c[nH]c2ccccc12)NC(=O)[C@H](CCCNC(=N)N)NC(=O)[C@@H](N)Cc1c[nH]c2ccccc12)C(=O)N[C@@H](Cc1ccccc1)C(=O)N[C@@H](CCC(N)=O)C(=O)N[C@@H](Cc1ccccc1)C(=O)N[C@@H](CCC(N)=O)C(=O)N[C@@H](Cc1ccccc1)C(=O)N[C@@H](CCCCN)C(N)=O					MBC	1130 µM
Nc1nc2ccc(Oc3cccnc3)cc2s1	absorbance	PA14-lux	200 µM, 18 h	reference: DMSO	pyocyanin inhibition	18.3%
CC[C@H](C)[C@H](NC(=O)[C@H](Cc1c[nH]c2ccccc12)NC(=O)[C@@H](NC(=O)[C@H](Cc1c[nH]c2ccccc12)NC(=O)[C@@H]1CCCN1C(=O)[C@@H](NC(=O)[C@H](C)N)[C@@H](C)CC)[C@@H](C)CC)C(=O)N[C@@H](Cc1c[nH]c2ccccc12)C(=O)N[C@@H](CCCNC(=N)N)C(=O)N[C@@H](CC(C)C)C(=O)N[C@@H](CC(C)C)C(=O)N[C@@H](CCCNC(=N)N)C(=O)N[C@@H](CCCCN)C(=O)NCC(N)=O		PAO1	18 h, 37 °C		MBC	> 15 µM
O=C(O)c1cccc(C(=O)O)n1		VIM-2 producer	32 µg/mL, together with: meropenem		meropenem MIC	2 µg/mL
COc1cc(C#CC(=O)CC(C)C)ccc1O			10 µM, 24 h	reference: untreated	exoprotease production	91%
O=C(O)CN(CC(=O)O)CC(=O)O		IMP-37 and IMP-13 producer	32 µg/mL, together with: meropenem		meropenem MIC	32 µg/mL
COc1c([N+](=O)[O-])oc2ccc3ccccc3c12	REMA				MIC90	> 32 µg/mL

Some of these lines once more:
SMILES	assay	test system	setting	how to read	endpoint	value
CC(C)(C)Oc1ccc(CC2NC(=O)C(C(=O)NC(C(=O)NC3C(=O)N4C3SC(C)(C)C4C(=O)O)c3ccccc3)=C2O)cc1 (centres unmarked)		pqsE mutant			MIC	6.25 µg/mL (≈ 9.82 µM)
CC[C@H](C)[C@H](NC(=O)[C@H](C)NC(=O)[C@H](CCCCN)NC(=O)[C@H](CC(C)C)NC(=O)[C@H](C)NC(=O)[C@@H](NC(=O)[C@H](Cc1c[nH]cn1)NC(=O)[C@H](CC(C)C)NC(=O)[C@@H](NC(=O)[C@@H](NC(=O)[C@H](CCCCN)NC(=O)[C@H](C)NC(=O)[C@H](C)NC(=O)[C@H](CO)NC(=O)[C@H](CCCCN)NC(=O)[C@H](Cc1ccccc1)NC(=O)[C@@H](NC(=O)[C@H](CCCCN)NC(=O)[C@H](CC(C)C)NC(=O)[C@H](Cc1ccccc1)NC(=O)[C@H](CO)NC(=O)[C@H](CCCCN)NC(=O)[C@H](Cc1c[nH]c2ccccc12)NC(=O)[C@H](CCCCN)NC(C)=O)[C@@H](C)O)[C@@H](C)O)C(C)C)[C@@H](C)O)C(=O)N[C@@H](CO)C(=O)N[C@@H](CO)C(N)=O		IPM-S	43 strains		MIC geometric mean	7.03 µg/mL (≈ 2.4 µM)
O=[N+]([O-])c1cc2c(ccc3cc(Br)ccc32)o1	REMA				MIC90	> 32 µg/mL
Nc1cc(S(=O)(=O)c2ccc3nc(N)sc3c2)ccn1	swarming area, modified FAB agar	PA14-lux	200 µM, 24 h	reference: DMSO vehicle	inhibition	-31.5%
